Published values collected from several papers.
Compare with care: the assays were run in different laboratories.
HTR2C: 5-hydroxytryptamine receptor 2C (HTR2C, Homo sapiens, UniProt P28335)
Sequence of UniProt P28335 (whole entry, looked up): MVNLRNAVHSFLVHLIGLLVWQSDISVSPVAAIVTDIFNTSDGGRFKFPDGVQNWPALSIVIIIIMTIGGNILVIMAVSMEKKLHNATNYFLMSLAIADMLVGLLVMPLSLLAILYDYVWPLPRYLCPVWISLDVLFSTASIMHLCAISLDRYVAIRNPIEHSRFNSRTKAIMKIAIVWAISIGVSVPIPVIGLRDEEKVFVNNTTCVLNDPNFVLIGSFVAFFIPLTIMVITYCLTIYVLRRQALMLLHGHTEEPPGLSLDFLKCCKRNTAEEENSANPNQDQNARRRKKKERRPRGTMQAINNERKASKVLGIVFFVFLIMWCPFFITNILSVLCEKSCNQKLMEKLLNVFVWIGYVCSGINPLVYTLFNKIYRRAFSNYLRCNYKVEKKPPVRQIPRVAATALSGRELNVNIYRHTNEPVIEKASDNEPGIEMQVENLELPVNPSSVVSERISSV
PFF0160c E182D: Dihydroorotate dehydrogenase (quinone), mitochondrial (PFF0160c, Plasmodium falciparum, UniProt Q08210, E182D)
Sequence of UniProt Q8TDR2 (whole entry, looked up): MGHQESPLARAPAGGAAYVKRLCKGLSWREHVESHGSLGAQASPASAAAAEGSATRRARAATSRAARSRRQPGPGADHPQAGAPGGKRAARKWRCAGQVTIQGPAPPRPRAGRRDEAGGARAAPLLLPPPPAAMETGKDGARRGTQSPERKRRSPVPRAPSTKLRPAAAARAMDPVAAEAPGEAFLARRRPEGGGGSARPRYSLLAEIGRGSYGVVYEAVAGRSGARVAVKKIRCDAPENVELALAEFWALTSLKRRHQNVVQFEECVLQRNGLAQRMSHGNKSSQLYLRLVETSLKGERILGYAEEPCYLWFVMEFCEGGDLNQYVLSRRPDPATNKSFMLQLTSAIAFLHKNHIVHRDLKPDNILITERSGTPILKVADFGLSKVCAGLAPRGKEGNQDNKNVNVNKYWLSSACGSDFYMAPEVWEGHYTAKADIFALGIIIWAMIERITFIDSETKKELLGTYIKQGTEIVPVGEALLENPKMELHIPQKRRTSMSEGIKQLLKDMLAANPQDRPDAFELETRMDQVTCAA
Sequence of UniProt P55786 (whole entry, looked up): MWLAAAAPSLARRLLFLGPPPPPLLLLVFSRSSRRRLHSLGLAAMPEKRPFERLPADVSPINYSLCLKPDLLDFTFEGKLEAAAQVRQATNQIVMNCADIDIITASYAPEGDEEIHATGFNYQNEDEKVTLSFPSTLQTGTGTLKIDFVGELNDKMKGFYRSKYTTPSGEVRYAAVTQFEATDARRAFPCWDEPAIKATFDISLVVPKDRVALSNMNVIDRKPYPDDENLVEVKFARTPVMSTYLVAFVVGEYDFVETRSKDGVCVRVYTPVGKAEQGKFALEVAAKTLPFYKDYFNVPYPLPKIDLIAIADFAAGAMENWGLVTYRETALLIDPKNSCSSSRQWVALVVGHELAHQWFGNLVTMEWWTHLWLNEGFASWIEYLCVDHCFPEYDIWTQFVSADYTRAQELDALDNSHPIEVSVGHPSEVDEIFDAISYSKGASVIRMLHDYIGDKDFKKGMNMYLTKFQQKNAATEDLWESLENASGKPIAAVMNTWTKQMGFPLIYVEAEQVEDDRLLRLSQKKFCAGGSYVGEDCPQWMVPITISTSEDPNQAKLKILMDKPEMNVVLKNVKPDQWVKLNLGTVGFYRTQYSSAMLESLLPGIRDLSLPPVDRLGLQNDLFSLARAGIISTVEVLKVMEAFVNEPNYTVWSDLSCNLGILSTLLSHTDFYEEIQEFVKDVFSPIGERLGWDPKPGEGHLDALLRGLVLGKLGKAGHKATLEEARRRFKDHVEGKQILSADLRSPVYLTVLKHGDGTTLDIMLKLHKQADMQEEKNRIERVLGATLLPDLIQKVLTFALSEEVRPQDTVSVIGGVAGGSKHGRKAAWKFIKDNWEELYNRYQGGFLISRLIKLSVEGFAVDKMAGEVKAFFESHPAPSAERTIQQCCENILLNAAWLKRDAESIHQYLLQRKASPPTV
Sequence of UniProt Q96FL8 (whole entry, looked up): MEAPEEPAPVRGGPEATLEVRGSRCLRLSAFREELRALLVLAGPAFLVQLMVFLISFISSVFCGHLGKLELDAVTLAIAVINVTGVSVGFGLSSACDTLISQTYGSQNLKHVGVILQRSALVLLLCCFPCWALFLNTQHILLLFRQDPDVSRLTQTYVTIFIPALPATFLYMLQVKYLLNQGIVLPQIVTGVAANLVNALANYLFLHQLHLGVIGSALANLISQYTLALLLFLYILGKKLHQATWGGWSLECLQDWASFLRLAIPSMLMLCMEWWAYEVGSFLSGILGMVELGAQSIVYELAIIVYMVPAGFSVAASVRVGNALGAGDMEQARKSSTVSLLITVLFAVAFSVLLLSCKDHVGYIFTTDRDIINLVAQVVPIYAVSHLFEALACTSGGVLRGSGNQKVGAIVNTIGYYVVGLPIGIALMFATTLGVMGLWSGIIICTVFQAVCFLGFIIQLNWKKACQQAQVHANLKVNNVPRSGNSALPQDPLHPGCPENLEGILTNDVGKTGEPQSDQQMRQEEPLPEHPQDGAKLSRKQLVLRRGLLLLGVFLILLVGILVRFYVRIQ
Sequence of UniProt P35363 (whole entry, looked up): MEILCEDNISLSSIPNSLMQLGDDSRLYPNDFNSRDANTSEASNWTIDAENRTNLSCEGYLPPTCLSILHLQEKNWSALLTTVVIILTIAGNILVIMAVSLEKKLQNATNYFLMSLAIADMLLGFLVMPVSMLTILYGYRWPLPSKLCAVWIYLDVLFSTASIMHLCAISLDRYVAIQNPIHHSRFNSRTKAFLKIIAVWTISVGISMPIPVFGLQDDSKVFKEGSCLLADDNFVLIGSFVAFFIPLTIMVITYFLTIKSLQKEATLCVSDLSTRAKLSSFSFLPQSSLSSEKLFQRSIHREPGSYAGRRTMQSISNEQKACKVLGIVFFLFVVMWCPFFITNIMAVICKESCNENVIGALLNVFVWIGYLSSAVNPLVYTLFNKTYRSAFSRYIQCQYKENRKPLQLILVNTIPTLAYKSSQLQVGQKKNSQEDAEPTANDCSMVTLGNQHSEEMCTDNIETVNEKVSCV
Sequence of UniProt O75582 (whole entry, looked up): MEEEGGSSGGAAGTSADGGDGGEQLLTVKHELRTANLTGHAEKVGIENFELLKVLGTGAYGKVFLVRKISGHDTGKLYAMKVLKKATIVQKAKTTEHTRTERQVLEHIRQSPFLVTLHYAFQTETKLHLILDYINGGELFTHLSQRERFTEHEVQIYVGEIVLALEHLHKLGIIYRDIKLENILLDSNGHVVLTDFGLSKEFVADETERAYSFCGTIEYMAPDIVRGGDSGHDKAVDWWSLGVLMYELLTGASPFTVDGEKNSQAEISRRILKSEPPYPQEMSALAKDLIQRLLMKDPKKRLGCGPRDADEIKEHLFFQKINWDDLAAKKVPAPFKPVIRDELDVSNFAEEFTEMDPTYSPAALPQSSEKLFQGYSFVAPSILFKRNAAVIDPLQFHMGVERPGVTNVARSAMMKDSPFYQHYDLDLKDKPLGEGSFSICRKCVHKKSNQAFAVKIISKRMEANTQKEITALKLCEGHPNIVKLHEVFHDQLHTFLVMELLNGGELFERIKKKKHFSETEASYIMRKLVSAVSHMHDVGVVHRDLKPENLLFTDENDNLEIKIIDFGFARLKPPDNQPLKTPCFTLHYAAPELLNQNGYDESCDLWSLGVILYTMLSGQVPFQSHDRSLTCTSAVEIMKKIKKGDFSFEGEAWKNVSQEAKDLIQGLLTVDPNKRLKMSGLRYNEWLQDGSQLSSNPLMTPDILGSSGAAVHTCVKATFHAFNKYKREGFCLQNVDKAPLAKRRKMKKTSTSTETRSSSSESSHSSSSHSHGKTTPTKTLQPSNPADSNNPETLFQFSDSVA
Sequence of UniProt P23795 (whole entry, looked up): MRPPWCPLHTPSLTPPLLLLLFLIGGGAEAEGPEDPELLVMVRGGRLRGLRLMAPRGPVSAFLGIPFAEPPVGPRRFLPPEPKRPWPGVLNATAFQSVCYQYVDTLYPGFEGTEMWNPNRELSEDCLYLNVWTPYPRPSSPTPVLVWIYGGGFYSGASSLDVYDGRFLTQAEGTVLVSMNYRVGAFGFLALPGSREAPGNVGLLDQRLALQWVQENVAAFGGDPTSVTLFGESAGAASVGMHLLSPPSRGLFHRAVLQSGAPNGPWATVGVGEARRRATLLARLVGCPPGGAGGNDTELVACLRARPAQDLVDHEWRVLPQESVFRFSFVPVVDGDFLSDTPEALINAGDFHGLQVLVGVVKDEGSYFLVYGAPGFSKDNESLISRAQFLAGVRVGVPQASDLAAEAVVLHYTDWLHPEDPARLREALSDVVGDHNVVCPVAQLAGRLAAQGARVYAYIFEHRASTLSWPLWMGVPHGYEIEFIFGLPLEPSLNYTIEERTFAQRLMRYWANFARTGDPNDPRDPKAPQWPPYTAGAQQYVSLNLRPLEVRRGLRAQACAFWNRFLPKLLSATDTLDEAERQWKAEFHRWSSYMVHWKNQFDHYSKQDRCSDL
Sequence of UniProt O43570 (whole entry, looked up): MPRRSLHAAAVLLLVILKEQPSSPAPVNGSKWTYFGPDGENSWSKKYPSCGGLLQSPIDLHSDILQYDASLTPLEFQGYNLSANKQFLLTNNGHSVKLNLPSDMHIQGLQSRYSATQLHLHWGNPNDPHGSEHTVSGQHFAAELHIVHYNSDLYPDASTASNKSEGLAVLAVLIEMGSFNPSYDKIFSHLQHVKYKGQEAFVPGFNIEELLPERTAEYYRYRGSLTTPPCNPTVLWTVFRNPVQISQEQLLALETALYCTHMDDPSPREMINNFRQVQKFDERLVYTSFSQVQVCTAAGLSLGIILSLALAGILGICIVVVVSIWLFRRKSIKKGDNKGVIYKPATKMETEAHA
Sequence of UniProt P00915 (whole entry, looked up): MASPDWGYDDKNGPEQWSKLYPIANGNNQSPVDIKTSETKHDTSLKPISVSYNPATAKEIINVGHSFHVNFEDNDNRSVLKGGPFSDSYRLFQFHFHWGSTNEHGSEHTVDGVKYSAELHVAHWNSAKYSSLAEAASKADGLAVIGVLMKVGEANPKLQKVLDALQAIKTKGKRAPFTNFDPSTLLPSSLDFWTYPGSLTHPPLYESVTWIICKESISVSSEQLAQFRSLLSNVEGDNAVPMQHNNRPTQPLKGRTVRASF

SMILES = [2H]c1c([2H])c([C@]2([2H])CCCN2C(=O)C(C)(C)Oc2ccc3cn[nH]c3c2)c([2H])c([2H])c1C([2H])([2H])[2H]; target or system = Serine/threonine-protein kinase 35 (STK35, Homo sapiens, UniProt Q8TDR2); test = binding, competition with immobilised ligand; setting = 1 µM; endpoint = remaining binding; value = 75%
SMILES = COc1cc(CCNC(C)c2ccccc2)c(OC)cc1C#N (stereo not drawn); target or system = 5-hydroxytryptamine receptor 2A (Htr2a, Mus musculus, UniProt P35363); test = G protein activation, agonist, BRET; endpoint = EC50; value = 140 nM
SMILES = CNC(C)Cc1ccc2c(c1)OCO2 (stereo not drawn); target or system = Multidrug and toxin extrusion protein 1 (SLC47A1, Homo sapiens, UniProt Q96FL8); test = transporter uptake, inhibitor; endpoint = IC50; value = 6900 nM
SMILES = COc1cc(CCNCc2ccccc2OC)c(OC)cc1Br; target or system = HTR2C; test = G protein activation, agonist, BRET; endpoint = EC50; value = 0.27 nM
SMILES = COCc1ccccc1C(=O)NCCOc1cc(C)cc(C)c1; target or system = PFF0160c E182D; test = enzyme activity, inhibitor, absorbance; endpoint = IC50; value = 97.7 nM
SMILES = COC(=O)c1cc(-c2cccc(NC(=O)Nc3ccc(C(F)(F)F)cc3)c2)on1; target or system = Mycobacteroides chelonae; test = microbial growth, broth dilution; test system = ATCC35752; setting = 48 h; endpoint = MIC; value = > 64 µg/mL
SMILES = Nc1ncc(-c2nc(N3CCOCC3)nc(N3CCOCC3)n2)c(C(F)F)n1; target or system = Tyrosine-protein kinase ABL1, phosphorylated (ABL1, Homo sapiens, UniProt P00519, Y253F); test = binding, competition with immobilised ligand; setting = 10 µM; endpoint = remaining binding; value = 63%
SMILES = COC(=O)c1cc(-c2cccc(NC(=S)NC3CCCCC3)c2)on1; target or system = Mycolicibacterium fortuitum; test = microbial growth, broth dilution; test system = ATCC6841; setting = 48 h; endpoint = MIC; value = > 64 µg/mL
SMILES = CCc1nc2nc(C)cc(Nc3ccc(F)c(Cl)c3)n2n1; target or system = Dihydroorotate dehydrogenase (quinone), mitochondrial (PFF0160c, Plasmodium falciparum, UniProt Q08210); test = enzyme activity, inhibitor, absorbance; endpoint = IC50; value = 1000 nM
SMILES = O=C(Nc1ccccc1)Nc1ccc2c(c1)C=CCP(=O)(O)O2; target or system = Carbonic anhydrase 2 (CA2, Homo sapiens, UniProt P00918); test = enzyme activity, inhibitor, stopped-flow; endpoint = Ki; value = > 10000 nM
SMILES = CN(C)c1ncnc2c1ncn2[C@@H]1O[C@H](CCl)[C@@H](NC(=O)[C@H](CSC(c2ccccc2)c2ccccc2)NC(=O)OC(C)(C)C)[C@H]1O; target or system = Puromycin-sensitive aminopeptidase (Homo sapiens, UniProt P55786); test = enzyme activity, inhibitor, fluorescence; endpoint = IC50; value = 5900 nM
SMILES = Cc1nn(C)cc1-c1nc2c(N3CCN(Cc4ccc(Cl)cc4)CC3)c(Cl)cnc2[nH]1; target or system = Ribosomal protein S6 kinase alpha-5, N-terminal kinase domain (RPS6KA5, Homo sapiens, UniProt O75582); test = binding, competition with immobilised ligand; setting = 1 µM; endpoint = remaining binding; value = 100%
SMILES = C=CC[N+](C)(C)c1ccc(CCC(=O)CCc2ccc([N+](C)(C)CC=C)cc2)cc1; target or system = Acetylcholinesterase (Bos taurus, UniProt P23795); test = enzyme activity, inhibitor, Ellman; endpoint = IC50; value = 16 nM
SMILES = O=C(Nc1ccc2c(c1)C=CCP(=O)(O)O2)c1cccs1; target or system = Carbonic anhydrase 1 (CA1, Homo sapiens, UniProt P00915); test = enzyme activity, inhibitor, stopped-flow; endpoint = Ki; value = > 10000 nM
SMILES = S=C(SSC(=S)N1CCCCC1)N1CCCCC1; target or system = Tyrosine-protein phosphatase non-receptor type 22 (PTPN22, Homo sapiens, UniProt Q9Y2R2); test = enzyme activity, inhibitor, fluorescence; setting = pH 6.5; endpoint = IC50; value = 15000 nM
SMILES = COc1ccc2nc(C)cc(Nc3ccc(Cl)c(Cl)c3)c2c1; target or system = PFF0160c E182D; test = enzyme activity, inhibitor, absorbance; endpoint = IC50; value = > 10000 nM
SMILES = COc1cc(CCNC(C)c2ccccc2O)c(OC)cc1C#N (single isomer, unassigned; (+)); target or system = HTR2C; test = calcium signal, agonist; endpoint = EC50; value = 3300 nM
SMILES = CCOC(=O)c1cn(CC)c2cc(O[C@H]3CCN(C(=O)OC(C)(C)C)C3)ccc2c1=O; target or system = PFF0160c E182D; test = enzyme activity, inhibitor, absorbance; endpoint = IC50; value = > 10000 nM
SMILES = O=C(Nc1ccc2c(c1)C=CCP(=O)(O)O2)Nc1ccccc1Br; target or system = Carbonic anhydrase 12 (CA12, Homo sapiens, UniProt O43570); test = enzyme activity, inhibitor, stopped-flow; endpoint = Ki; value = > 10000 nM
SMILES = Cc1nc2ccccc2n1[C@@H]1C[C@H]2CC[C@@H](C1)N2Cc1nccn1-c1ccccc1; target or system = PFF0160c E182D; test = enzyme activity, inhibitor, absorbance; endpoint = IC50; value = 2980 nM
SMILES = CCC(NCCc1cc(OC)c(C#N)cc1OC)c1ccccc1O (stereo not drawn); target or system = HTR2C; test = G protein activation, agonist, BRET; endpoint = EC50; value = 2400 nM
